# Measurements pooled from the literature.
# Parts stem from different laboratories: compare values within a part only.

# Block 1
# Target: Interferon regulatory factor 5, full length, phosphomimetic (IRF5, Homo sapiens, UniProt Q13568-2, residues 1-514, S451D/S453D/S456D/S462D)
# Method: protein-binding microarray
# Form: double-stranded DNA, one strand shown
# Medium: in vitro
# Tested at: 940 nM top
# Setting: 60-bp whole probe
# Added: salmon DNA 0.4 mg/ml
# Relative to: random background probes
# Reading: higher = stronger binding
# Shared flanks, not repeated: GCCTAGCAC … GTCTTGATTCGCTTGACGCTGCTG
Oligonucleotide,fitted relative affinity
GACGGTTTCTACACTGGGGACGTGCTA,1.92 z-score
TGGTCTTTCTGTTTTCTCCAGTGCTAG,3.55 z-score
GACGTTCTCGGTATCGGGACGTGCTAG,4.97 z-score
GACGGTTTCGGTCTCGCGACGTGCTAG,13.8 z-score
AACGATTTCAGTATCGAGACGTGCTAG,2.53 z-score
GACGGTATGGACTATCGGGACGTGCTA,-0.208 z-score
CGTTTTTCATTTTTTTTTTCGTGCTAG,2.14 z-score
GACGGTCTCAGACTGGAGACGTGCTAG,-0.582 z-score
TCAACTTTCTGAATGCTACTGTGCTAG,0.665 z-score
TTAGGACTGGACACTGGATTAGTGCTA,-0.469 z-score
ATGCATGTAAATAATCAGACAGTGCTA,-0.139 z-score
TTATGACTGGGTTTCGGTTAGTGCTAG,6.57 z-score
TCAGTTTCTATTTTCTGACTGTGCTAG,6.34 z-score
TACGGTATCCTTCTCCTGACGTGCTAG,0.718 z-score
TTAGGACTAGGTATCGGTTAGTGCTAG,3.85 z-score
GTAGTAATGAATATAATACCGTGCTAG,-0.747 z-score
GACGGATTGCTTTTCCTGACGTGCTAG,-0.437 z-score
TTCGGTTTCGGGACTGGGTTAGTGCTA,7.76 z-score

# Block 2
# Target: Sal-like protein 4, full length isoform B (SALL4, Homo sapiens, UniProt Q9UJQ4-2, residues 1-616)
# Method: universal PBM
# Form: double-stranded DNA, one strand shown
# Medium: in vitro
# Tested at: not given
# Setting: 8-mer, flanks averaged, mean of replicates
# Reading: higher = stronger binding
# Residues (chain): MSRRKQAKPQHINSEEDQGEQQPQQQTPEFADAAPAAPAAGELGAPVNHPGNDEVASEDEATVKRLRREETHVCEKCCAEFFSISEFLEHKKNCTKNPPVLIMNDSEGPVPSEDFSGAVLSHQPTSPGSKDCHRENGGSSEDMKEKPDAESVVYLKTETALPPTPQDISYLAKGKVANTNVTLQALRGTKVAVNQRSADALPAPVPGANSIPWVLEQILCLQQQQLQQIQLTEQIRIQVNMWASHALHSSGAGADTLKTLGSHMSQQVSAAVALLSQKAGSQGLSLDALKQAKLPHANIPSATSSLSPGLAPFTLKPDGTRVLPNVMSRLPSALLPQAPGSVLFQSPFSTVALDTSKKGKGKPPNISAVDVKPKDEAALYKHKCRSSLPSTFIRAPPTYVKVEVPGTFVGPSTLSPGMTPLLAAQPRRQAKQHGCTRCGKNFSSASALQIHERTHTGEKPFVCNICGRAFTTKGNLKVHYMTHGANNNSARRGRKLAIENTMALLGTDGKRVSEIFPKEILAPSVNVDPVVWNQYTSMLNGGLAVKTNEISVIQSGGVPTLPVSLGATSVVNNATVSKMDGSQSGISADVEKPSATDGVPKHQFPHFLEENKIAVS
Oligonucleotide,E-score
AAACGCTA,0.0423
ATGAAGAC,0.116
CCGTCGTC,-0.308
CTGCGTGC,-0.253
GCCACGAC,-0.112
GGGTAGGA,-0.114
GGCGTGTA,-0.0488
AACGAGGC,-0.196
AGAACCGA,-0.192
CTCATTTA,0.174
GCAAGGCA,-0.0585
ACAGAGGT,0.0248
CCCAAAGC,-0.101
CCAAATGA,0.185
AAATGATT,0.361
GCGGGACC,-0.252
CAGGACGG,-0.243
AGCTATAG,0.134
TAAACCTA,0.145
AACTAAGG,0.0207
ACAATTAT,0.424
ACTTTGGG,-0.111
CCCAGATA,-0.0869

# Block 3
# Target: Prothrombin, mature alpha-thrombin (F2, Homo sapiens, UniProt P00734)
# Method: aptamer microarray, sandwich
# Form: DNA with 2'F-ANA
# Medium: in vitro
# Tested at: 200 nM
# Setting: whole 15-mer aptamer, many near background
# Added: Cy3 exosite-II aptamer, 400 nM
# Reading: higher = stronger binding
# Oligonucleotide: GGTTGGTGTGGTTGG
Modification,mean fluorescence intensity [a.u.]
2'F-ANA at 2 4 7 9 13,196
2'F-ANA at 3 5 9 11,107
2'F-ANA at 1 2 4 5 7 8 9 12 14,44.4
2'F-ANA at 7 9 14 15,228
2'F-ANA at 1 4 6 8 12,367
2'F-ANA at 1 5 6 10 12 13,46.8
2'F-ANA at 3 6 7 8 9 10 13 15,470
2'F-ANA at 6 7 9 10 11 12 13,194
2'F-ANA at 1 3 4 6 8 9 11 13 14,103
2'F-ANA at 2 3 5 6 7 8 10 11 12 14 15,51.2
2'F-ANA at 2 4 9 10 13 15,75.9
2'F-ANA at 1 2 3 4 7 8 11 12 14,96.7
2'F-ANA at 5 6 9 11 13 14 15,52.5
2'F-ANA at 1 4 5 6 13,46.8
2'F-ANA at 2 3 4 7 13 15,540
2'F-ANA at 4 5 6 11 12 13 15,72.4
2'F-ANA at 3 4 7 8 9 10 13 15,230
2'F-ANA at 1 2 4 6 10,118
2'F-ANA at 2 3 5 7 8 9 11 12 14,59.8
2'F-ANA at 2 3 5 6 8 10 14,55.9

# Block 4
# Target: Histone acetyltransferase KAT6A, winged helix 2, GST fusion (KAT6A, Homo sapiens, UniProt Q92794, residues 85-181)
# Method: protein binding microarray
# Form: double-stranded DNA, one strand shown
# Medium: in vitro
# Tested at: not given
# Setting: 8-mer, flanks averaged, mean of 2 arrays, mostly near background
# Relative to: not given
# Reading: higher = stronger binding
# Target sequence (chain): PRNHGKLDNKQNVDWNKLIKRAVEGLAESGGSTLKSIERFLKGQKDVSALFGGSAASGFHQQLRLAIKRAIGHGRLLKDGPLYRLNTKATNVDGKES
Oligonucleotide,E-score
ACTTGAAG,-0.0518
CGATGGGC,0.137
TAGTTTGA,0.0788
ACTCTCTG,-0.205
ACTACGGG,-0.105
AACTGACT,-0.153
AAATTTGG,-0.156
ACACTCAT,-0.0481
ATGAAGCC,0.093
AGCGTACA,-0.0233
AACGTCCA,-0.166
ACTGCCGG,0.172
AAGGCTAT,-0.156
ATGGGTGC,-0.141
TAGAAAAA,0.0999
AGATAGCT,-0.0653
GCAAGGGC,-0.0358
AACGGCTA,-0.0784
AGGACGGA,-0.104
GGATTTAA,-0.0629
CCTATCAC,-0.088
CTGGCTGA,-0.0134
AGTTGTTA,-0.0348
CGTTTGCC,0.107

# Block 5
# Target: Centromere-binding protein 1, full length, His-tagged (CBF1, Saccharomyces cerevisiae, UniProt P17106, residues 1-351)
# Sequence of UniProt P17106 (whole entry, looked up): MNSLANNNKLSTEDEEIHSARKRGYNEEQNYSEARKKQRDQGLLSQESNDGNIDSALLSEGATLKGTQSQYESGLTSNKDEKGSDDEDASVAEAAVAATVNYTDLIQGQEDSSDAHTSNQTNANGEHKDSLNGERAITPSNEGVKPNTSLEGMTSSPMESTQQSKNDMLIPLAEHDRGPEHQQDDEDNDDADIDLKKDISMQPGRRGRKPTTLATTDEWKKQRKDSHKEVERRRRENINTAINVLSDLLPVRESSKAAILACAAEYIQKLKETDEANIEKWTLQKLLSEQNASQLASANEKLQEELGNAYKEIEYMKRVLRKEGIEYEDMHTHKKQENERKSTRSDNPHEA
# Method: competition protein-binding microarray
# Form: double-stranded DNA, one strand shown
# Medium: in vitro
# Tested at: 2 µM
# Setting: whole 60-bp probe, lowest competitor level
# Added: Pho4 competitor, 0.05 µM
# Reading: higher = stronger binding
Oligonucleotide,fluorescence intensity
AAAAATGTATACAGATCAGTCTGTATATAAATCATGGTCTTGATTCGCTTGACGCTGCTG,186 a.u.
AAATTACTAAGTTTTCACGTGACCTACCCCGTATGAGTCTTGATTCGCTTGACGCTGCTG,11400 a.u.
CTTCCTTTGTCCTGGTAGGTGTGAGCTCTTGAGAGTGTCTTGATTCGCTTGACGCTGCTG,70.9 a.u.
CTTTCCCGATCTTGCAGAGTGGGTGTAGCACATTTGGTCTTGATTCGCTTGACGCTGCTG,66.2 a.u.
CGCTATGCCATCAGTGATGTGATGAGCAATGCCGGAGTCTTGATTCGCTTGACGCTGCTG,62.6 a.u.
TTTTTAATTCGGAATCAGGTGAAAGGTTTTATATCCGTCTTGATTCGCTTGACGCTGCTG,371 a.u.
ATAGACAATACTTTTCACATGCCGCATTTAGCCGCCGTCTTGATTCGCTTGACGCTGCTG,141 a.u.
TTCTAAATCTGCAATAACGTGGCAAGTATTCTGATCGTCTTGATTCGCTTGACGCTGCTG,153 a.u.
CCGGTTAACGTTGTGGACGTGTTGGCGATGCCTCAAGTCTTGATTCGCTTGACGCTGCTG,58.4 a.u.
GATGAACTTGTTTAGCACGTGAATATAAGATGAGAGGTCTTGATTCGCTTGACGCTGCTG,1780 a.u.
TACGAGCAAATTTTGCACGTATAGGGCGCCTATAACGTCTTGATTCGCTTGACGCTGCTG,86.9 a.u.
CTTCTGTAAATTTGCGCAGTGGGTGGACGCGCCCCGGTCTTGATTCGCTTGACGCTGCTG,79.1 a.u.
CATACCCAACCTTGTCACCCAACTTAAGATATTTGTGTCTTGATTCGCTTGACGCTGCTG,78.8 a.u.
TATTTAACTCCATTTCACGTGATGGGTTTGAAAGAAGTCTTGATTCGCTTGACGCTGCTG,3040 a.u.
CTTCTGTAAATTTGTTATGTGGGTGGACGCGCCCCGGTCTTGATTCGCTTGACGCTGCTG,88.2 a.u.
GCAAGACCTAAAAAATTCGTGCCAGGGTTTGAGCTAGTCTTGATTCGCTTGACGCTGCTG,56.8 a.u.
AACTCTCGCAGCCGTCACGTGCAAATTGATACAAGTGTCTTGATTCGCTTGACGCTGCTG,4990 a.u.
ATTGCTTAGCACCGTCACGTCTTTCGTTGGCTGTCAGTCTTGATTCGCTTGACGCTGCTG,87.5 a.u.
AAAGCGGTAATTTGGTTAGTGGGTGCAGATATCTATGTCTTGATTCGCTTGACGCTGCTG,84.7 a.u.
CTTTCCCGATCTTGTCACTACACTTTAGCACATTTGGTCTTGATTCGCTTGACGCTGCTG,81.1 a.u.
